Published values from different studies.
Each numbered part is a random draw from the data of one study; scales do not carry over between parts.

Set 1
Target: Prothrombin, mature alpha-thrombin (F2, Homo sapiens, UniProt P00734)
Technique: aptamer microarray, sandwich
Molecule type: DNA with 2'F-ANA
Sample: in vitro
Concentration: 200 nM
Setting: whole 15-mer aptamer, many near background
With: Cy3 exosite-II aptamer, 400 nM
Direction: higher = stronger binding
Strand: GGTTGGTGTGGTTGG
Under “mean fluorescence intensity”, `2'F-ANA at 1 2 4 5 6 7 9 11 15` is recorded as 48.4 a.u.
`2'F-ANA at 4 5 8 10 11 12 13 14 15`: “mean fluorescence intensity” 62.7 a.u.
For `2'F-ANA at 1 2 4 5 10 13 14`, “mean fluorescence intensity” read 43.5 a.u.
`2'F-ANA at 2 4 7 10 11 13 15` — result for “mean fluorescence intensity”: 92.7 a.u.
Under “mean fluorescence intensity”, `2'F-ANA at 1 2 3 4 5 6 8 9 10 11 14` is recorded as 52.2 a.u.
For `2'F-ANA at 1 4 8 9 10 11 13 14 15`, “mean fluorescence intensity” read 88.7 a.u.
`2'F-ANA at 2 3 5 8 9 10 13 15`: “mean fluorescence intensity” 53.9 a.u.
`2'F-ANA at 1 4 6 7 8 9 10`: “mean fluorescence intensity” 52.2 a.u.
`2'F-ANA at 1 4 7 8 11 13 15`: “mean fluorescence intensity” 101 a.u.
For `2'F-ANA at 1 2 5 8 9 10`, “mean fluorescence intensity” read 47.1 a.u.
For `2'F-ANA at 1 5 7 8 9 10 11 12 14`, “mean fluorescence intensity” read 47.9 a.u.
Under “mean fluorescence intensity”, `2'F-ANA at 2 4 5 6 8 10 11 12 14` is recorded as 47 a.u.
`2'F-ANA at 1 3 4 5 7 10 13 14` — result for “mean fluorescence intensity”: 79.4 a.u.
For `2'F-ANA at 1 2 3 4 5 7 10 12 15`, “mean fluorescence intensity” read 50.4 a.u.
`2'F-ANA at 4 6 7 11` — result for “mean fluorescence intensity”: 239 a.u.
`2'F-ANA at 4 6 7` — result for “mean fluorescence intensity”: 399 a.u.
`2'F-ANA at 4 8 11 14 15` — result for “mean fluorescence intensity”: 110 a.u.

Set 2
Target: RNA binding protein fox-1 homolog 2, RRM domain, GST-SBP tag (RBFOX2, Homo sapiens, UniProt O43251-10, residues 100-194)
Technique: RNA Bind-n-Seq
Molecule type: RNA
Sample: in vitro
Concentration: 365 nM
Setting: natural RNA segment, single round, ends assumed
Baseline: no-protein control
Direction: higher = stronger binding
Construct (chain): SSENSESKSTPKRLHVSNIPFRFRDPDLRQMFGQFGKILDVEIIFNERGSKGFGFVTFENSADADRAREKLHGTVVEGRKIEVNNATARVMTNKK
`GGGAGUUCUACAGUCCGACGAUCCUUUCCAAAAAUGGAAGAUCCAAAAAUGGGGAUGUUUUAUGUACCCGGGUUAUUUUGUAUGAAUUCAAUCAAUUAGGAAAUAAAAAGAUUUUAAAUGUGUCUAAGGAGAAUGGAAUUCUCGGGUGCCAA` — result for “RBNS enrichment (R)”: 0.957.
Under “RBNS enrichment (R)”, `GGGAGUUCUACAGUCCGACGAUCGCACUGCUGUGUGGGCCGUGCAUGAUGUUUCCCCAUCAUUUCUUAAGACUGUUUUCCUGUGUAAGUGUUGCCCUCUAGAGGUACCUAGCAGUCACCCCACAAGCCUACCAUGGAAUUCUCGGGUGCCAA` is recorded as 0.401.
Under “RBNS enrichment (R)”, `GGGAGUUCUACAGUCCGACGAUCUCCUGGAAAUCGACACACUGAACAGUGCACUUUUAGUUCACUGCUAAACAAAGCACACUUUUCAGGACUUGCUGGGUCACCUUUUCCUGAGGAAUGAUAGCGAAGAGUGUUGGAAUUCUCGGGUGCCAA` is recorded as 0.318.
`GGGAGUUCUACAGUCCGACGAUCGGACCCUUGGUCUAAUUCGCACUUUCCUCACGAGAAUUAAAUUAAGCAAAAAACAAACAAACAUAGUGGGCCCUCGUCUAGAUCAUGAUGUGCCAGUUUCUGAGACAUCUUGGAAUUCUCGGGUGCCAA` — result for “RBNS enrichment (R)”: 0.402.
For `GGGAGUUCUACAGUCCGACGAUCAUUGUGGCUUGAAGGACUGCACUAAAACCCACUAAAAAGAUGCGAAAACCUGAUGAGGGCAAACCAGUUAAACCUAACACCCUGCCUUGUCUGGGCUCAUCACCUCUCCCUGGAAUUCUCGGGUGCCAA`, “RBNS enrichment (R)” read 0.369.
For `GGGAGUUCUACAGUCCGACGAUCUUUCCUUGGAGCACUGAGCACCAUUUGGAAGCUUGAGAGAAACCAAAAUUAAAGAGAGAAAGAGAGAGCGUGCACGCUCCUGCUUUGUCUUUCCUGUGUGGGCUGUUUGCUGGAAUUCUCGGGUGCCAA`, “RBNS enrichment (R)” read 9.24.
`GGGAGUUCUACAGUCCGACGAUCAACAGAUGAACUGUAAUGACGACCUGCUAACUGCUAGCCUUCAGCGCUAUCUGUUCCCUCACACAGUCGCUAAGUGGUCAAAUUGGUGCUUGAAAUUCAUUGGUCUAGUUUGGAAUUCUCGGGUGCCAA` — result for “RBNS enrichment (R)”: 1.28.
Under “RBNS enrichment (R)”, `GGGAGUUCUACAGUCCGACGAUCAAGCACCCCUAGAUAGUGUGAUUCUGUCAGAUAGCAUUUAUGCAAAAAUCUAUGAAGUUAAAAGAUCGUAGAAGCCAAAUGAAAUGUACAUAUCUACUGACUGAUGACAAUGGAAUUCUCGGGUGCCAA` is recorded as 0.263.

Set 3
Target: Sal-like protein 4, full length isoform A (SALL4, Homo sapiens, UniProt Q9UJQ4, residues 1-1053)
Chain of UniProt Q9UJQ4 (whole entry, looked up): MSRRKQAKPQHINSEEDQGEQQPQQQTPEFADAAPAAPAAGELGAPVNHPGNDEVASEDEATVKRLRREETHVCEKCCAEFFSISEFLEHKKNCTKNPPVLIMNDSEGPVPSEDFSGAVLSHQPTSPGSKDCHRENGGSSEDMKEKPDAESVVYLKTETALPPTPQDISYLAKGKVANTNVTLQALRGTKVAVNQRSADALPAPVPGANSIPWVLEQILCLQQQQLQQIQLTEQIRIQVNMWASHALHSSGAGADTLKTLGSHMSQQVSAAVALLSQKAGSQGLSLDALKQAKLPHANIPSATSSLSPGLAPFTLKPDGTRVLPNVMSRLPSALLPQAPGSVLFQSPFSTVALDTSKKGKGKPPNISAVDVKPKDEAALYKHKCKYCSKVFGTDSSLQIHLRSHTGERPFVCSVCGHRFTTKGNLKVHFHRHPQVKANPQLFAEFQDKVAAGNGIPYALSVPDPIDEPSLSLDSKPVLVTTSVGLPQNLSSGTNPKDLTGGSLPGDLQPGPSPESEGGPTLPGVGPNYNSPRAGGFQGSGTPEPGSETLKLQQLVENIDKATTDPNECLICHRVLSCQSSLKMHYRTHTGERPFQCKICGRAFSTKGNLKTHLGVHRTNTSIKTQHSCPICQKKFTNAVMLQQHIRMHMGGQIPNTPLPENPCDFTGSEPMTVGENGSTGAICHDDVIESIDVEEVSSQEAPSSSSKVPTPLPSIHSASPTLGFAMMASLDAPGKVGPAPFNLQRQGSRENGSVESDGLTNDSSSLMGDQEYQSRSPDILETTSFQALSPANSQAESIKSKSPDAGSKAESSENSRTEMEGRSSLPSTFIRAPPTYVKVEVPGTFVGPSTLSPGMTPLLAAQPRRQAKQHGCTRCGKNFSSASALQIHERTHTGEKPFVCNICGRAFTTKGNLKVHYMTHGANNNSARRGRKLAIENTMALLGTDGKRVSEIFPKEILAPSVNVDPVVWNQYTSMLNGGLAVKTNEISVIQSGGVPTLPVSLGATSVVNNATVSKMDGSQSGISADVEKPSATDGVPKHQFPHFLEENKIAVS
Technique: universal PBM
Molecule type: double-stranded DNA, one strand shown
Sample: in vitro
Concentration: 600 nM
Setting: 8-mer, flanks averaged, mean of replicates
Direction: higher = stronger binding
With `AGGTGTAA` the E-score was 0.0528.
The E-score of `GCAATCTA` is reported as 0.117.
The E-score of `GCAAGTCA` is reported as -0.21.
`ACGGACCA` gave an E-score of -0.156.
For `AAACACGG`, the E-score was -0.0867.
`GGGGATAC` has an E-score of -0.244.
For `AGTCCTAG`, the E-score was -0.147.
`GGGGTCAA` gave an E-score of -0.0736.
The E-score of `CCGGTCCC` is reported as -0.362.
`AGAAACCA` gave an E-score of -0.0145.
`GAAGGTAA` gave an E-score of 0.163.
`GCCTTTAC` gave an E-score of 0.0034.
With `CCAGAGAG` the E-score was -0.223.
The E-score of `CCTCAGGC` is reported as -0.289.
The E-score of `ACTCCAAA` is reported as 0.0462.
For `ATCTACCG`, the E-score was -0.0006.
`AGCCGAGG` gave an E-score of -0.135.
For `ACTAAAGC`, the E-score was 0.074.
`GGAGGGTA` has an E-score of -0.0803.
The E-score of `CGCGACGC` is reported as -0.333.
For `ACTAAGAT`, the E-score was 0.168.
The E-score of `GGTCGAAA` is reported as -0.168.
With `GTTCTGTA` the E-score was 0.0179.
With `AGGGCGAT` the E-score was -0.142.
For `TAGCCCCA`, the E-score was -0.179.

Set 4
Target: Interferon regulatory factor 3, full length, phosphomimetic (IRF3, Homo sapiens, UniProt Q14653, residues 1-427, S386D/S396D/S398D/S402D/T404D/S405D)
Technique: protein-binding microarray
Molecule type: double-stranded DNA, one strand shown
Sample: in vitro
Concentration: 2540 nM top
Setting: 60-bp whole probe
With: salmon DNA 0.4 mg/ml
Baseline: random background probes
Direction: higher = stronger binding
Shared flanks, not repeated: GCCTAGCAC … GTCTTGATTCGCTTGACGCTGCTG
Target sequence (chain): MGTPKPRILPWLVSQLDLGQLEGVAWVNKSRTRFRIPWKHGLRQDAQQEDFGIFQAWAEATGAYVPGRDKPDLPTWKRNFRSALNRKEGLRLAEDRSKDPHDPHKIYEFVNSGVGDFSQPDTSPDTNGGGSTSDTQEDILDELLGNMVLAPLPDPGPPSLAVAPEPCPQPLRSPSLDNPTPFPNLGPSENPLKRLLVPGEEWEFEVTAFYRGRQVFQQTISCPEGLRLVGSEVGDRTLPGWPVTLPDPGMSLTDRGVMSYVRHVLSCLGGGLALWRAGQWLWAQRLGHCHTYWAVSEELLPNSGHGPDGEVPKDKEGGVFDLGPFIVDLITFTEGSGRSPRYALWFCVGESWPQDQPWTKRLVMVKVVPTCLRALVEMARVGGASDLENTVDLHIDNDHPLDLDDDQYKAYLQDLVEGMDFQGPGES
For `ATAGGTATCGACTTTCGGTTAGTGCTA`, “fitted relative affinity” read 2.15 z-score.
For `TCAAGTTTAATATCTAAGACTGTGCTA`, “fitted relative affinity” read -0.228 z-score.
Under “fitted relative affinity”, `GTTGTACTTTCTATCTCTGTGTGCTAG` is recorded as 3.52 z-score.
`TCACCTCTACCTCCTGGGACTGTGCTA` — result for “fitted relative affinity”: 0.169 z-score.
`TCACTCCTCTAGGTTCTCACTGTGCTA`: “fitted relative affinity” 0.0424 z-score.
`TTAGATCTCGGTTTCGATTAGTGCTAG`: “fitted relative affinity” 3.71 z-score.
`TTAGGACTGCTACTGCTTTTGTGCTAG`: “fitted relative affinity” -0.732 z-score.
`TCAGAAATCTCTTTCCTACTGTGCTAG` — result for “fitted relative affinity”: 1.74 z-score.
`GACGATTCCAGGTTCGAGACGTGCTAG`: “fitted relative affinity” 0.665 z-score.
`GACGAACTGGGGACTGGAGCCGTGCTA` — result for “fitted relative affinity”: -0.706 z-score.
Under “fitted relative affinity”, `GACGGTATCGCCTATCGGGACGTGCTA` is recorded as 0.627 z-score.
`TTAGATCTCAGTATCGACTAGTGCTAG`: “fitted relative affinity” 0.403 z-score.
Under “fitted relative affinity”, `TTAGAACTGGGGTATCGATAAGTGCTA` is recorded as -0.602 z-score.
For `TTAGGACTGGACACTGGGATAGTGCTA`, “fitted relative affinity” read -0.629 z-score.
`TTAGAACTGGGGTTGCGATTAGTGCTA` — result for “fitted relative affinity”: -0.213 z-score.
`TGAGCACCCAGAGCCGCCTGGTGCTAG`: “fitted relative affinity” -0.796 z-score.
`GACGGTATCGACACTGTGGACGTGCTA` — result for “fitted relative affinity”: 0.674 z-score.
`GACGGTCTCCTTTTCCGGACGTGCTAG` — result for “fitted relative affinity”: 4.71 z-score.
Under “fitted relative affinity”, `TCACCTTGCATGTTTTTGACTGTGCTA` is recorded as 0.341 z-score.

Set 5
Target: Histone acetyltransferase KAT6A, winged helix 2, GST fusion (KAT6A, Homo sapiens, UniProt Q92794, residues 85-181)
Technique: protein binding microarray
Molecule type: double-stranded DNA, one strand shown
Sample: in vitro
Concentration: not given
Setting: 8-mer, flanks averaged, mean of 2 arrays, mostly near background
Baseline: not given
Direction: higher = stronger binding
Residues (chain): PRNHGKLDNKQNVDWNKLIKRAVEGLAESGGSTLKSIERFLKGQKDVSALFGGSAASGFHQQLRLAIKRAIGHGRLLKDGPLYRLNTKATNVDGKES
For `AAATTTGC`, the E-score was 0.0582.
`CTGCTCGA` gave an E-score of -0.078.
The E-score of `AAGTCCAC` is reported as -0.131.
`GAACTCCC` has an E-score of 0.114.
With `CGTTCTTC` the E-score was -0.00684.
With `ACGACGAC` the E-score was -0.166.
`CACTCCTG` gave an E-score of 0.0158.
The E-score of `GTGGTTTA` is reported as -0.149.
`ATATGACA` gave an E-score of -0.0449.
For `CATAACGA`, the E-score was -0.132.
The E-score of `CGCTCCTC` is reported as 0.0546.
With `CCCCGCCC` the E-score was 0.223.
`GTACTTTA` has an E-score of -0.153.
For `CGAGCTAC`, the E-score was -0.081.
For `ATTATGTC`, the E-score was -0.0693.
With `GCTTGTTA` the E-score was -0.0426.
The E-score of `ATCCCATC` is reported as -0.0818.

Some of these lines once more (set 3):
`GCCTTTAC` gave an E-score of 0.0034.
With `CCAGAGAG` the E-score was -0.223.
The E-score of `CCTCAGGC` is reported as -0.289.
The E-score of `ACTCCAAA` is reported as 0.0462.
For `ATCTACCG`, the E-score was -0.0006.
`AGCCGAGG` gave an E-score of -0.135.
For `ACTAAAGC`, the E-score was 0.074.
